Measured values pooled from the literature.
Lines come from different studies, so protocols differ. ± marks the error that the study gave. ≈ marks a conversion by molar mass, not a printed value.
Organism: Escherichia coli

Structure (SMILES) = CC[C@H](C)[C@H](NC(=O)[C@H](CCCNC(=N)N)NC(=O)[C@H]1CCCN1C(=O)[C@H](Cc1ccc(O)cc1)NC(=O)[C@@H](NC(=O)[C@@H](NC(=O)[C@H](CCCNC(=N)N)NC(=O)[C@H](Cc1ccccc1)NC(=O)[C@@H](NC(=O)[C@H](Cc1c[nH]c2ccccc12)NC(=O)[C@H](Cc1c[nH]c2ccccc12)NC(=O)c1ccccc1)C(C)C)C(C)C)C(C)C)C(=O)N[C@H](C(=O)N[C@@H](Cc1ccc(O)cc1)C(=O)N[C@H](C(=O)N[C@@H](CCCNC(=N)N)C(=O)N[C@@H](CCCNC(=N)N)C(=O)N[C@@H](CCCNC(=N)N)C(=O)N[C@@H](Cc1c[nH]c2ccccc12)C(=O)N[C@H](C(=O)NCC(=O)N1CCC[C@H]1C(=O)N[C@@H](CCCCN)C(=O)N[C@@H](CCCCN)C(N)=O)[C@@H](C)O)C(C)C)C(C)C; assay = bacterial growth; system = DH5α; conditions = 50% growth inhibition; measurement = IC50; result = 21.5 µM
Structure (SMILES) = CN(C)S(=O)(=O)c1ccc(S(=O)(=O)N2CCC(n3c(=O)[nH]c4ccccc43)CC2)cc1; system = Keio wild type; conditions = concentration not given, 24 h; measurement = streptomycin concentration; result = 3.92 µg/mL
Structure (SMILES) = COc1c(NC(=O)c2ccc(NC(=O)c3ccc(NC(=O)[C@H](CC#N)NC(=O)c4ccc(NC(=O)[C@@H](N)Cc5ccccc5)cc4)cc3)c(OC)c2O)ccc(C(=O)O)c1O; system = clones expressing AraC family proteins; conditions = concentration not given; scale = baseline: empty vector; measurement = MIC fold change; result = 8 fold
Structure (SMILES) = C=CS(=O)(=O)NCCCCOCc1cn(CCCCNS(=O)(=O)C=C)n[n+]1C; assay = growth, turbidity OD600; system = ΔtolC; conditions = 24 h; measurement = IC50; result = > 100 µM
Structure (SMILES) = O=C(O)CCc1c(C(=O)O)[nH]c2ccccc12; system = DH5α with VIM-2 plasmid; conditions = 10 µg/mL, added: meropenem; measurement = MIC of meropenem; result = 2 µg/mL
Structure (SMILES) = C=CC(=O)NCCCCOCc1cn(CCCCNC(=O)C=C)nn1; assay = growth, turbidity OD600; system = ΔtolC; conditions = 24 h; measurement = IC50; result = > 100 µM
Structure (SMILES) = CCC(=O)OCCSC[C@H](N)C(=O)N[C@H](CCN)C(=O)N[C@@H](CCN)C(=O)N[C@@H](CCN)C(=O)N[C@@H](CC(C)C)C(=O)N[C@H](Cc1ccccc1)C(=O)N[C@@H](CCN)C(=O)N[C@@H](CCN)C(=O)N[C@@H](CC(C)C)C(N)=O; system = ATCC 10546; conditions = 24 h, 37 °C; measurement = MBC; result = 32 µM (≈ 35 µg/mL)
Structure (SMILES) = CC(N)C(O)CCCCCCCCCCCCCCC(=O)CCCCCCCC(O)C(C)N (stereo not shown); assay = resazurin; system = ATCC 10536; conditions = 50 µM; measurement = growth inhibition; result = 6 ± 0.89%
Structure (SMILES) = C=CC(=O)NCCCCCCCCCCOCc1cn(CCCCCCCCCCNC(=O)C=C)n[n+]1C; assay = growth, turbidity OD600; system = ΔtolC; conditions = 24 h; measurement = IC50; result = 13.7 ± 1.8 µM
Structure (SMILES) = CC[C@H](C)CCCCC(=O)N[C@@H](CCN)C(=O)N[C@H](C(=O)N[C@@H](CCN)C(=O)N[C@H]1CCNC(=O)[C@H]([C@@H](C)O)NC(=O)[C@H](CCN)NC(=O)[C@H](CCN)NC(=O)[C@H](CC(C)C)NC(=O)[C@@H](CC(C)C)NC(=O)[C@H](CCN)NC1=O)[C@@H](C)O; assay = daily serial passaging; system = ATCC 8739; conditions = highest sub-MIC, 34 days; scale = baseline: initial MIC; measurement = MIC fold change; result = 1.74
Structure (SMILES) = CCOC(=O)C1(Cc2ccccc2)Oc2cc(F)ccc2N(Cc2ccccc2)C1=O (stereo not shown); assay = bacterial growth; system = BL21(DE3); conditions = 100 µM, 4 h; measurement = OD600; result = > 0.9
Structure (SMILES) = CC(C)C[C@H](NC(=O)[C@H](CCN)NC(=O)[C@H](CCN)NC(=O)[C@@H](Cc1ccccc1)NC(=O)[C@H](CC(C)C)NC(=O)[C@H](CCN)NC(=O)[C@H](CCN)NC(=O)[C@@H](CCN)NC(=O)CCS)C(N)=O; system = ATCC 10546; conditions = 24 h, 37 °C; measurement = MBC; result = 32 µM (≈ 31.3 µg/mL)
Structure (SMILES) = CC[C@H](C)[C@H](NC(=O)[C@H](CC(C)C)NC(=O)[C@H](CC(=O)O)NC(=O)[C@H](CCCNC(=N)N)NC(=O)[C@H](Cc1c[nH]c2ccccc12)NC(=O)[C@@H](N)CC(C)C)C(=O)N[C@@H](CS)C(=O)N[C@@H](CC(C)C)C(=O)N[C@@H](CS)C(=O)N[C@@H](CCCNC(=N)N)C(=O)N[C@@H](CC(N)=O)C(=O)N[C@@H](CCCNC(=N)N)C(=O)N[C@@H](CCCNC(=N)N)C(=O)N[C@@H](CS)C(=O)N[C@@H](CC(N)=O)C(=O)N[C@@H](CCCNC(=N)N)C(=O)NCC(=O)N[C@@H](CCC(N)=O)C(=O)N[C@@H](CC(C)C)C(=O)N[C@@H](Cc1ccccc1)C(=O)N1CCC[C@H]1C(=O)NCC(=O)N[C@@H](Cc1c[nH]c2ccccc12)C(=O)N[C@@H](CS)C(=O)N1CCC[C@H]1C(=O)NCC(=O)N[C@@H](Cc1c[nH]c2ccccc12)C(=O)N[C@@H](Cc1c[nH]c2ccccc12)C(=O)N[C@@H](CC(C)C)C(=O)N[C@@H](CCCNC(=N)N)C(=O)N[C@@H](CS)C(=O)N[C@@H](CS)C(=O)N[C@@H](CCCNC(=N)N)C(=O)N[C@@H](CCCNC(=N)N)C(N)=O; assay = colony count; system = PBS; conditions = 20 µg/mL, 2 h; measurement = bactericidal rate; result = 96.6%
Structure (SMILES) = O=C(O)CN(CC(=O)O)CP(=O)(O)O; system = ATCC 25922, no carbapenemase; conditions = 32 µg/mL, added: meropenem; scale = baseline: meropenem alone; measurement = fold MIC reduction; result = ≥ 1
Structure (SMILES) = CC[C@H](C)[C@H](NC(=O)[C@H](C)NC(=O)CNC(=O)[C@H](C)NC(=O)[C@H](CCCCN)NC(=O)[C@H](CO)NC(=O)[C@H](C)NC(=O)[C@H](CCSC)NC(=O)CN)C(=O)N[C@@H](C)C(=O)NCC(=O)N[C@@H](CCCCN)C(=O)N[C@H](C(=O)N[C@@H](C)C(=O)N[C@@H](CCCCN)C(=O)N[C@H](C(=O)N[C@@H](C)C(=O)N[C@@H](CC(C)C)C(=O)N[C@@H](CCCCN)C(=O)N[C@@H](C)C(=O)N[C@@H](CC(C)C)C(N)=O)C(C)C)[C@@H](C)CC; system = 0370 ampicillin resistant; conditions = Loewe additivity, added: ampicillin; measurement = combination index; result = 0.96
Structure (SMILES) = CC[C@H](C)[C@@H]1NC(=O)[C@H](CCC(N)=O)NC(=O)[C@@H](NC(=O)[C@H](CC(C)C)NC(=O)[C@H](C)NC(=O)[C@H](C)NC(=O)[C@@H]2CCCN2C(=O)[C@H](CC(C)C)NC(=O)[C@@H](NC(=O)[C@H](CCCCN)NC(=O)[C@H](C)NC(=O)[C@H](C)NC(=O)[C@@H](NC(=O)[C@H](CCCCN)NC(=O)[C@H](CC(C)C)NC(=O)[C@@H](NC(=O)[C@@H](NC(=O)CNC(=O)[C@H](CC(C)C)NC(=O)[C@@H](N)Cc2ccccc2)[C@@H](C)O)C(C)C)C(C)C)C(C)C)CSSC[C@@H](C(=O)O)NC(=O)[C@H](CCCCN)NC(=O)[C@H](CCCCN)NC(=O)[C@H](Cc2ccccc2)NC1=O; assay = time-kill; system = ATCC 8739; conditions = 2-4 x MIC; measurement = time to eradication; result = ≤ 120 min
Structure (SMILES) = C#CCCCC(=O)N[C@H]1CCOC1=O; assay = LuxR reporter, antagonist; system = DH5α sensor strain; conditions = 40 µM, added: OHHL 200 nM; measurement = inhibition; result = 60%
Structure (SMILES) = CC[C@H](C)[C@H](NC(=O)[C@H](Cc1ccccc1)NC(=O)[C@H](CCCCN)NC(=O)[C@H](CCCCN)NC(=O)CNC(=O)[C@H](C)NC(=O)[C@H](CC(N)=O)NC(=O)[C@H](CCCCN)NC(=O)[C@H](Cc1ccccc1)NC(=O)[C@H](CC(N)=O)NC(=O)[C@H](CCC(=O)O)NC(=O)[C@H](Cc1c[nH]c2ccccc12)NC(=O)[C@H](CC(C)C)NC(=O)[C@@H](N)CO)C(=O)N[C@@H](CC(C)C)C(=O)N[C@@H](CC(N)=O)C(=O)N[C@H](C(=O)N[C@@H](CC(C)C)C(=O)N[C@@H](CC(=O)O)C(=O)N[C@@H](CCCCN)C(N)=O)[C@@H](C)CC; assay = time-kill colony count; system = ATCC 8739; conditions = 2-4 x MIC; measurement = time to 100 % killing; result = ≤ 120 min
Structure (SMILES) = C=C(C)C(=O)NCCCCCCOCc1cn(CCCCCCNC(=O)C(=C)C)n[n+]1C; assay = growth, turbidity OD600; system = ΔtolC; conditions = 24 h; measurement = IC50; result = > 100 µM
Structure (SMILES) = CCC(C)CCC(=O)N[C@H](CCN)C(=O)N[C@@H](CCN)C(=O)N[C@@H](CCN)C(=O)N[C@@H](CC(C)C)C(=O)N[C@H](Cc1ccccc1)C(=O)N[C@@H](CCN)C(=O)N[C@@H](CCN)C(=O)N[C@@H](CC(C)C)C(N)=O (stereo partly shown); system = ATCC 10546; conditions = 24 h, 37 °C; measurement = MBC; result = 8 µM (≈ 8.03 µg/mL)
Structure (SMILES) = C=CS(=O)(=O)NCCCCCCCCOCc1cn(CCCCCCCCNS(=O)(=O)C=C)nn1; assay = growth, turbidity OD600; system = ΔtolC; conditions = 24 h; measurement = IC50; result = > 100 µM
Structure (SMILES) = C=CCN1C(=O)C(CC=C)(C(=O)OCC)Oc2cc(F)ccc21 (stereo not shown); assay = bacterial growth; system = BL21(DE3); conditions = 100 µM, 4 h; measurement = OD600; result = > 0.9
